Measurements from different studies.
Each numbered part is a random draw from the data of one study; scales do not carry over between parts.

Set 1 — method: RNA Bind-n-Seq; molecule type: RNA; sample: in vitro; tested at: 1 µM; setting: whole 134-nt RNA, ends assumed; together with: 150 mM KCl; relative to: input library; reading: higher = stronger binding
Target: Ras GTPase-activating protein-binding protein 1, C-terminal RGG region (G3BP1, Homo sapiens, UniProt Q13283)
UniProt Q13283, sequence (whole entry, looked up): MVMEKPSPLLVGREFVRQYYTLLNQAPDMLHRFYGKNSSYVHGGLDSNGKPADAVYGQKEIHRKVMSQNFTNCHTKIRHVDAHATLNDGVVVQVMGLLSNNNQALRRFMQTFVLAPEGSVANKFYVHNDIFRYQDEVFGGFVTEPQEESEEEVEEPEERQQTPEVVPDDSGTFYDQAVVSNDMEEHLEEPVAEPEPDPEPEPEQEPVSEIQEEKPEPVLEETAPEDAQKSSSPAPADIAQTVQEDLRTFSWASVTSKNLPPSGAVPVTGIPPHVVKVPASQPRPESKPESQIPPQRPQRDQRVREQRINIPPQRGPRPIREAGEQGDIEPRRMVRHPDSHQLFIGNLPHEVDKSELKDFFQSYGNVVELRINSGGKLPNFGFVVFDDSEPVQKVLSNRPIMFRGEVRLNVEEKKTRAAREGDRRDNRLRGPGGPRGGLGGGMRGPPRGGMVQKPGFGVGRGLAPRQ
Sequence | log2 enrichment
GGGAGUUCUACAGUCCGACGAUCCCUGUGCUACACAUCGUAUGUACCGAAUCGGGCCCCCCCGGCCCCCCCGGGGCCCCCCCGGAAAGUAUUAUGUUACGCCGUUCGGAUCUGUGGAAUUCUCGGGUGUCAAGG | -1.29
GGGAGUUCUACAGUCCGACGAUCCCUGUGCUACACAUCGUAUGUACCGAAUCGGGGUUUUUUUGGGGUUUUUGGGGAAAGGGGAAAGUAUUAUGUUACGCCGUUCGGAUCUGCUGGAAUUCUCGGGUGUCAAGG | 0.135
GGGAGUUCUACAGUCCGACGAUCCUGUGCUACACAUCGUAUGUACCGAAUCGGGCCCCCCCGGGGCCCCCCCGGGCCCCCCCGGGAAAGUAUUAUGUUACGCCGUUCGGAUCUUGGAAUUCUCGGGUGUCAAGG | -2.3
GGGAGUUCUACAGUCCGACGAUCCAAGUCCUGUGCUACACAUCGUAUGUACCGAAUCGGAGGUUUUUUUGGAAAAAGGAAAGUAUUAUGUUACGCCGUUCGGAUCUGCACUUCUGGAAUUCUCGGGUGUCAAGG | -1.87
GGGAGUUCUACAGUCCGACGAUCUGGGAGGUGUAUUUUGUUUAUUUUUUUAGCUCAUUUCCAGGGGUGGGAAUUUUUUUUUAAUAUGUGUCAUGAAUAAAGUUGUUUUUGAAAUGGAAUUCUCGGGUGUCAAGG | 2.76
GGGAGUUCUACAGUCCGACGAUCUCCUGUGCUACACAUCGUAUGUACCGAAUCGGUUUUUUUGGUUUUUUUGGGUUUUUUUGGAAAGUAUUAUGUUACGCCGUUCGGAUCUGCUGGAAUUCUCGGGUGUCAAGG | -0.494
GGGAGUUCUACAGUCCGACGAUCAAGUCCUGUGCUACACAUCGUAUGUACCGAAUCGGGCCCGGGCCCGGGGCCCGGGGAAAGUAUUAUGUUACGCCGUUCGGAUCUGCACUUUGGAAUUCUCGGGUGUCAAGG | -2.48
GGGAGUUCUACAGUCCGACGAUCUCAAGUCCUGUGCUACACAUCGUAUGUACCGAAUCGGUUUUGGUUUUGGUUUUGGAAAGUAUUAUGUUACGCCGUUCGGAUCUGCACUUCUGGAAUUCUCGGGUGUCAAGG | -1.45

Set 2 — method: protein-binding microarray; molecule type: double-stranded DNA, one strand shown; sample: in vitro; tested at: 250 nM; setting: 60-bp whole probe; together with: salmon DNA 0.4 mg/ml; relative to: random background probes; reading: higher = stronger binding; constant ends, left off below: GCCTAGCAC … GTCTTGATTCGCTTGACGCTGCTG
Target: Interferon regulatory factor 5, full length, phosphomimetic (IRF5, Homo sapiens, UniProt Q13568-2, residues 1-514, K96S/S451D/S453D/S456D/S462D)
Sequence | log fluorescence [z-score]
GACGGTTTCGGTTTCGGTACGTGCTAG | 11.6
TCAGTCATCGATTTCTTACTGTGCTAG | 0.577
TTCATTTTCTGAATGTCCTCGTGCTAG | 1.54
TCATTTCAGTTTCTCTTACTGTGCTAG | 5.24
GACGGACTGGGCTTTCGGGACGTGCTA | 1.22
TGAGATATCAGTATCGATTAGTGCTAG | 6.91
TTAGTTTTCCTTTTCCTTTAGTGCTAG | 2.86
TTAGATATCCTTATCCTTTAGTGCTAG | 0.234
GACGGTTTCGGGTTTCGGGAGGTGCTA | 8.01
GACGGTTTCGGATTGGGGACGTGCTAG | 5.2
GACGGTCTACTACTGCTGACGTGCTAG | -0.205
GACGGTTTCGGTATAGGGACGTGCTAG | 9.66
TCACATTTTCGTTTTTAACTGTGCTAG | 5.35
CCTAGTTTTACTTTCTATCTGTGCTAG | 5.38
GATGGTCTCCTTTTCCTGACGTGCTAG | 0.0192

Set 3 — method: RNA Bind-n-Seq; molecule type: RNA; sample: in vitro; tested at: 365 nM; relative to: no-protein control; reading: higher = stronger binding
Target: RNA binding protein fox-1 homolog 2, RRM domain, GST-SBP tag (RBFOX2, Homo sapiens, UniProt O43251-10, residues 100-194)
Setting: natural RNA segment, single round, ends assumed
Residues (chain): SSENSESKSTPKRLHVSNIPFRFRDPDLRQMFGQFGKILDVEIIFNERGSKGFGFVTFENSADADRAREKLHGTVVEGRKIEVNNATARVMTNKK
Sequence | RBNS enrichment (R)
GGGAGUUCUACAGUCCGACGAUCCAGAAGACUACAGGCUGGUGUCCCUAGAGGGCCCAAUACAGUCAAUUCCAACCUCUAAGUCGGGGAAAGGUGACAGGUUUCCUGGUGCUGGUGUGCACAGGGGCAGGCAGUGGAAUUCUCGGGUGCCAA | 0.474
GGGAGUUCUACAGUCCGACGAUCGGUGGCCACUCAGUGAGGAGGCUCUCUGGGGUCCAGUGUUUGGAAGAGGAGGAAAGGGGACCAAAGGGAAGUGAGGUCCUAGAGCGUUGACACUGAGGGAAGUCCUAUCUUGGAAUUCUCGGGUGCCAA | 0.505
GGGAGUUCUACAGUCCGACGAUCCCAGAUAUUUGAUGAGGUGCUAUGUUUGUGAAAAACAUAUCAUGUAAUUCAAAAACACUAUUGAUAUUGAAUACCAGAUACCACUAUGUAGUAAGUCUUUUAGGAUGAUUUGGAAUUCUCGGGUGCCAA | 0.287
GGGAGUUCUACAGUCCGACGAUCUUCCUCUUAGGCUACAAACCUGUACAGCAUGUUACUGUACUGAACACAAUGGUAAGUAUUUGUGUAUCUAAACAUAGCUAAACAUAGAAAAGGUAUGGUAAAAAUACAAUUGGAAUUCUCGGGUGCCAA | 3.05
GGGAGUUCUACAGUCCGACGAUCAUCUUUUACAAAGGCAAGUUGCCACUUGUCAUUUUUGUUUCUGAAAAAUAAAAGUAUAACUUAUUCAAUUUUUAGUGCUUUGUUAUUGAGAAAAUCUUCUUAAAUGUUGAUGGAAUUCUCGGGUGCCAA | 1.14
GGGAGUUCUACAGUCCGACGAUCUACCACAUUUGUGCCCCACUGACCUGAAGGUUCCAUGUAACUGUAUACACAUGAAUACUUAAAUGCCAACAUUUAAAAUAAUUUGAUAAAGUCUUUGUAGCCACUCAGCCUGGAAUUCUCGGGUGCCAA | 0.364
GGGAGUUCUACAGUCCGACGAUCUUAAACCUGAAGAUUUCCGCAGUCCGUGUAAGCAUGUUUACCCGUUGGCUCGCUUUCUGUGUCUGUUAAAUGAAUGUCAUAUGUAAAUGCUAAACUAAGUCAACAGUGUCUGGAAUUCUCGGGUGCCAA | 25.6
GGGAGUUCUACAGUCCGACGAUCGUCAGGACACUAGUUCAGUUCCCAGUACCCACAUGGUGGCUCACAACCUUCUGUGACUACAGUUCCAGAUAACCUGACACCCUCCUCUGGCCUCCUCGGGUGCCUGUGGUUGGAAUUCUCGGGUGCCAA | 0.401
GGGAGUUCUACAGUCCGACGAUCGGGGGAAAAGAAGAAAAAGUACCUAACACAAGCUUCCUUUUUGCACAACCGGUCCUCUUGGCUGAGGAGGAGGAGCUGGUCACCCUGGCUGCACAGUUAGAGAGGGGAGAUGGAAUUCUCGGGUGCCAA | 0.853
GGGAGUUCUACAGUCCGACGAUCCCAGUGGAGGCUUGAAUGCCCUCAGAAACGACCCUGGCCAAUGUCACCGCAGAGCCGAGGCGGUGUUGUCAGGGCUAAUGUGAAAUCUCUUCCCGUGGCGCCGAUCCUCUUGGAAUUCUCGGGUGCCAA | 0.609
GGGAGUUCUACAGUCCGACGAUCAGCCAGGCCUAGCUUUGAACUGAGUUUCAAGGGCUGCCAAAGAGGGGCAGUGGGUUGGGGUUGUUUUUACUACAAAAUAAGUUACUUAGUUUUAUAAAGACAAACCGAUUUGGAAUUCUCGGGUGCCAA | 0.395
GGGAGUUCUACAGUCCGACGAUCAAGGAGAAAGAGCAAGAUGAGGAGGAGAUGGUGGAUGAAAAGGCAAACUUGAAGAAAAAAGCCAAGGGCAAGUUAACUAAGAAGAAAACCCCAGUGAAGUCGGAGUCUUCUGGAAUUCUCGGGUGCCAA | 1.21

Further values, each from its own experiment
Substance | target | assay | test system | conditions | scale | measurement | result
PhoQ, residues 284 288 289 292 302 303 AGGCYF | PhoP, residues 12 14 15 18 19 NQFFI (Escherichia coli, UniProt P23836) | Sort-seq, item: YFP reporter | E. coli | PhoQ-PhoP variant library, together with: 10 µM Mg2+ | relative to: high Mg2+ state, higher = stronger signaling | fold induction | 1.69
